Measured values pooled from the literature.
A part holds a random share of what one study measured. Several values in a cell are separate wells, animals, samples, runs or records.
UniProt P07333, sequence (whole entry, looked up): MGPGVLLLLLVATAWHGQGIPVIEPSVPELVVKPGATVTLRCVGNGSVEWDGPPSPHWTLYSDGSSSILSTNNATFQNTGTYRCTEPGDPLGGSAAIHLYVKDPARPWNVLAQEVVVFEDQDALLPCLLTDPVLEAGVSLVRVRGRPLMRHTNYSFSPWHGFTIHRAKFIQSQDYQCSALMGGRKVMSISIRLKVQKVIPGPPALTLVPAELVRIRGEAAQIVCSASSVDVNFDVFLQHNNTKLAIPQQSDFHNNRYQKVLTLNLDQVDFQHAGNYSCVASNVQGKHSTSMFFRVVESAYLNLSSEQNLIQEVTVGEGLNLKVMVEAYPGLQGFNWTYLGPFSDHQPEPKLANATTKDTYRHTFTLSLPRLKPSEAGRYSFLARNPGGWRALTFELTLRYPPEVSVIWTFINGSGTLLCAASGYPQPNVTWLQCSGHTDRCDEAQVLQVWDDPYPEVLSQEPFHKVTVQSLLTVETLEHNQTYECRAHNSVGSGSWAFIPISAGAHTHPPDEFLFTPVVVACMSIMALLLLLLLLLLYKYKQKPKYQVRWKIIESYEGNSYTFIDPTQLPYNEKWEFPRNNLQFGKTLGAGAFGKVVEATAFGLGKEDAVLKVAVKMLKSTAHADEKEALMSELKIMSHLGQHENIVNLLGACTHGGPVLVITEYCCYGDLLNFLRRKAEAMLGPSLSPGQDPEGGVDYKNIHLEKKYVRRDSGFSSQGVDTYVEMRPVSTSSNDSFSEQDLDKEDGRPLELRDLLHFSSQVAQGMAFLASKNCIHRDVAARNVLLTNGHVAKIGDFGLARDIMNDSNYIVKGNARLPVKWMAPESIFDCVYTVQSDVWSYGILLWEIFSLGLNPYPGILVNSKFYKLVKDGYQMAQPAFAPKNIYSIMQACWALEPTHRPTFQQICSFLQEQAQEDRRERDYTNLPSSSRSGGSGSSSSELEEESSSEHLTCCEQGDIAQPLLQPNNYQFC
UniProt O76039, sequence (whole entry, looked up): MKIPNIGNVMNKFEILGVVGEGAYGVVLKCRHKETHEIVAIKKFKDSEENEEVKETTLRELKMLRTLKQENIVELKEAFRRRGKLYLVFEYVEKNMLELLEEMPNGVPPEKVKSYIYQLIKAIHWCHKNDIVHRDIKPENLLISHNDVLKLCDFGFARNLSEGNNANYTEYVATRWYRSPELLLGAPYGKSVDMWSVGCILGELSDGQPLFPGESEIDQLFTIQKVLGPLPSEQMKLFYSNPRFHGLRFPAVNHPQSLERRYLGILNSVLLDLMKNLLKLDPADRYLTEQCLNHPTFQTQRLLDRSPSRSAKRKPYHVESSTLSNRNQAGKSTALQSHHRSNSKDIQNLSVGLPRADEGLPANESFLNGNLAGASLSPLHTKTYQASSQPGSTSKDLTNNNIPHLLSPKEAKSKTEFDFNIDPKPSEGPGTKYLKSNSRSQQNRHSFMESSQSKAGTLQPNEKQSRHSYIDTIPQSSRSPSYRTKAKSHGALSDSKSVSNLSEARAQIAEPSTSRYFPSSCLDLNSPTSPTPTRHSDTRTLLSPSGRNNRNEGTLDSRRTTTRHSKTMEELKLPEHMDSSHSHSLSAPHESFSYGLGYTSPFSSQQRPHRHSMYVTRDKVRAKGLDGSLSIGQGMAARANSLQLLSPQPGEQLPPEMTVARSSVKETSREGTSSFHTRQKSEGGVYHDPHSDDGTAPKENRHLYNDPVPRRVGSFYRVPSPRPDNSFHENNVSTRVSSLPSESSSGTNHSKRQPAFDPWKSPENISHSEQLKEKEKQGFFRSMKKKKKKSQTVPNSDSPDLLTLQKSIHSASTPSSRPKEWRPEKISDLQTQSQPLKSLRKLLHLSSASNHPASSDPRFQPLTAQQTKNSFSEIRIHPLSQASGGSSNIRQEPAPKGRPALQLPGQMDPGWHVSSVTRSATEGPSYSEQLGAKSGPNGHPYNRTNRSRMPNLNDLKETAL
UniProt P54762, sequence (whole entry, looked up): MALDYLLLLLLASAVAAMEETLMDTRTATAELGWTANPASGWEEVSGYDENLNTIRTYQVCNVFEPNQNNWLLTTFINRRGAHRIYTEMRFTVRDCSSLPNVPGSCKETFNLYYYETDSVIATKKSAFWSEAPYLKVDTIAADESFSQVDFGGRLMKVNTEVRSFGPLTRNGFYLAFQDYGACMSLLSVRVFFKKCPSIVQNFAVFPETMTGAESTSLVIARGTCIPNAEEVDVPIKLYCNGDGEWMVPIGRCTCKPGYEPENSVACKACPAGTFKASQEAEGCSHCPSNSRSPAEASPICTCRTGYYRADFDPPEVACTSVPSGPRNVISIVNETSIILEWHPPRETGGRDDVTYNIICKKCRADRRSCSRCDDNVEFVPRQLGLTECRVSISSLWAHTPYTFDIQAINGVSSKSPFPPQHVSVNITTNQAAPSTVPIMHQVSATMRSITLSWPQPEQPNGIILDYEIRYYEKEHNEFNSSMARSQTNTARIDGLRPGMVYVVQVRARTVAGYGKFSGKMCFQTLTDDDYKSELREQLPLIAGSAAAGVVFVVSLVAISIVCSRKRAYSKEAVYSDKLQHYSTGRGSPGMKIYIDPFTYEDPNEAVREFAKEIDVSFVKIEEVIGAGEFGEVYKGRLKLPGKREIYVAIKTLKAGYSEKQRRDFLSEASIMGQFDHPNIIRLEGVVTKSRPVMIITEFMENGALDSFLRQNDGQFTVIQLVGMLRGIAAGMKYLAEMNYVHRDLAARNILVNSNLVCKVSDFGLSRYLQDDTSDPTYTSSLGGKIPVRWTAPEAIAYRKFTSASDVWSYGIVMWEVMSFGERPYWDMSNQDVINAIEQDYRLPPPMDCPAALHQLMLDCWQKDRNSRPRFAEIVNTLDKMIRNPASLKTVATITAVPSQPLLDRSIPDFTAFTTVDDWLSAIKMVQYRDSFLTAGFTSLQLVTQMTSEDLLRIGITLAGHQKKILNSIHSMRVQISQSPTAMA
UniProt P22455, sequence (whole entry, looked up): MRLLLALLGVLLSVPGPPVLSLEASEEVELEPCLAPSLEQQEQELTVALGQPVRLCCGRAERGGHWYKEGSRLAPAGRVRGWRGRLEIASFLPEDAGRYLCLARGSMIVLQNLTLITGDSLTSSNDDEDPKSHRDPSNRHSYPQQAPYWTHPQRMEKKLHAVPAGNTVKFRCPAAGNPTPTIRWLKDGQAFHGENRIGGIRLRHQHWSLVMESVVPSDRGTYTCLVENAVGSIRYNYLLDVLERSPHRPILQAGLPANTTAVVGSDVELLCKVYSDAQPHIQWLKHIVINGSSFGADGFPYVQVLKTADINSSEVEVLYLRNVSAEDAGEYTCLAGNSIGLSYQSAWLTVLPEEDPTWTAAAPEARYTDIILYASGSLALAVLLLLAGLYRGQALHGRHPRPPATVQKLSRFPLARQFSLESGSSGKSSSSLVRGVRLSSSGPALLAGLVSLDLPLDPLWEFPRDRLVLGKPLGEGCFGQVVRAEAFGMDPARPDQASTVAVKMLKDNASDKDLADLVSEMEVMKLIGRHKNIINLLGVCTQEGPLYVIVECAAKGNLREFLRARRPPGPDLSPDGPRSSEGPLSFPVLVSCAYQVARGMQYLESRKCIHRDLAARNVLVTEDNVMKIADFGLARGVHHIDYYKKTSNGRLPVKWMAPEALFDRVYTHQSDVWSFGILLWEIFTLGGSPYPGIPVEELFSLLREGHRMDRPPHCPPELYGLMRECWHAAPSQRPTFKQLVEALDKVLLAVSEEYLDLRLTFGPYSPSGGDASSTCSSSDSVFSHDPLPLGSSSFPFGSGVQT
UniProt P04049, sequence (whole entry, looked up): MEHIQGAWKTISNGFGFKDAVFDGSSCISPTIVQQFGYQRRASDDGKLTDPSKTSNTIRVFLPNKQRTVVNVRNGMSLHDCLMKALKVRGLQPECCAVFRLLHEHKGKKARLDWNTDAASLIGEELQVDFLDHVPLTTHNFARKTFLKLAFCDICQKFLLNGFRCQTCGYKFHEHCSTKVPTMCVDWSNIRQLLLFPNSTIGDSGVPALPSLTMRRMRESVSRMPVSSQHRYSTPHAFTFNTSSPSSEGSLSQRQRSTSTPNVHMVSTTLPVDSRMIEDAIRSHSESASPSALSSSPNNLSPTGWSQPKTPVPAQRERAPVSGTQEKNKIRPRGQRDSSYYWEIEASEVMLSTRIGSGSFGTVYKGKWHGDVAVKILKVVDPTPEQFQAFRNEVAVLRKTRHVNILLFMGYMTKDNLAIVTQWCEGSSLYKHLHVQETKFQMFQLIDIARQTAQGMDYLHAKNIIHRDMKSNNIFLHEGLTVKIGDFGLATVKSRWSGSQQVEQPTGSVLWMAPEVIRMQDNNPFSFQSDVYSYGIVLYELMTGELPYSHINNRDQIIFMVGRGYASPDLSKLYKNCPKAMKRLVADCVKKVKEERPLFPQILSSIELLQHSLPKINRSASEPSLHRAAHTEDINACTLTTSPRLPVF
UniProt P23443, sequence (whole entry, looked up): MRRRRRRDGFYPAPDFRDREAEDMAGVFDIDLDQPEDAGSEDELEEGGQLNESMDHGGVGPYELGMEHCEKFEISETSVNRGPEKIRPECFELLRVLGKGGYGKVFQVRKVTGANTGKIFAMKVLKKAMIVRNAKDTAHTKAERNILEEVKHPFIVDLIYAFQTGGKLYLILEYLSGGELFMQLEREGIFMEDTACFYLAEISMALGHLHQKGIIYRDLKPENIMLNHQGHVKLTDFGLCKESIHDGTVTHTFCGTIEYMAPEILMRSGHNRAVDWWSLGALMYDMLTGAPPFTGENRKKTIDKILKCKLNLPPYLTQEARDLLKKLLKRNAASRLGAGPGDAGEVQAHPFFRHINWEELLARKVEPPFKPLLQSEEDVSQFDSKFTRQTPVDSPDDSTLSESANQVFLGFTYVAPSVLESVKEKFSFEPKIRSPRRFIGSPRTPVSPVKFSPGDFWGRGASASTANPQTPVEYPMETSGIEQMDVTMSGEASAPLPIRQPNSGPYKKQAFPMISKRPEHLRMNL

Study 1 — effect on: cell-free assay; method: competition with immobilised ligand; concentration: 1 µM
SMILES: C[C@@]1(Cc2ccc(C#N)cc2)C(=O)N(c2cc(Cl)cc(Cl)c2)c2ncc(C(=O)NC3(c4nc(C5CCC5)no4)CC3)n21
target | remaining binding
EGFR (Homo sapiens, UniProt P00533, L861Q) | 100%
KIT (Homo sapiens, UniProt P10721, A829P) | 100%
TAOK1 (Homo sapiens, UniProt Q7L7X3) | 97%
PIK3C2B (Homo sapiens, UniProt O00750) | 100%
BMX (Homo sapiens, UniProt P51813) | 40%
CDKL5 (Homo sapiens, UniProt O76039) | 100%
Tyrosine-protein kinase ABL1, non-phosphorylated (ABL1, Homo sapiens, UniProt P00519, H396P) | 100%
HIPK1 (Homo sapiens, UniProt Q86Z02) | 100%
MAP2K7 (Homo sapiens, UniProt O14733) | 100%
EGFR (Homo sapiens, UniProt P00533, G719S) | 99%
DCLK3 (Homo sapiens, UniProt Q9C098) | 88%
BRSK1 (Homo sapiens, UniProt Q8TDC3) | 100%
Tyrosine-protein kinase ABL1, phosphorylated (ABL1, Homo sapiens, UniProt P00519, M351T) | 100%
CLK4 (Homo sapiens, UniProt Q9HAZ1) | 97%
RAF1 (Homo sapiens, UniProt P04049) | 100%
CDKL1 (Homo sapiens, UniProt Q00532) | 100%
YES1 (Homo sapiens, UniProt P07947) | 100%
EPHB1 (Homo sapiens, UniProt P54762) | 87%
CSNK1A1 (Homo sapiens, UniProt P48729) | 100%
ROCK1 (Homo sapiens, UniProt Q13464) | 100%
CAMK2A (Homo sapiens, UniProt Q9UQM7) | 89%

Study 2 — cell line: mouse MPNST tumor cells; method: high-content nuclear imaging; measured: cell number; concentration: 10 µM; time: 12 h; notes: mean of 2 replicates; reference: plate mean; reading: higher = more cells
SMILES | nuclei count
CN(CCCCCCCCCCN(C)C(=O)Oc1cccc([N+](C)(C)C)c1)C(=O)Oc1cccc([N+](C)(C)C)c1 | 0.852 z-score
NC1CCN(c2c(F)cc3c(=O)c(C(=O)O)cn(C4CC4)c3c2Cl)C1 (stereo not shown) | 1.36 z-score
CN/C(=N\CCSCc1nc[nH]c1C)NC#N | -0.0523 z-score and 3.78 z-score
COc1cc2ncnc(Nc3ccc(O)c(Br)c3)c2cc1OC | 3.9 z-score
CC(=O)Oc1ccc(C(c2ccc(OC(C)=O)cc2)c2ccccn2)cc1 | -0.241 z-score
Cn1ncnc1COc1nn2c(-c3cc(F)ccc3F)nnc2cc1C(C)(C)C | 0.0664 z-score
CC1(C)CCC(C)(C)c2cc(C3(c4ccc(C(=O)O)cc4)OCCO3)ccc21 | 2.17 z-score
CC(=O)N1CCN(c2ccc(OCC3COC(Cn4ccnc4)(c4ccc(Cl)cc4Cl)O3)cc2)CC1 (stereo not shown) | 0.818 z-score
N[C@H](CNc1nc(-c2ccncc2)nc2sc3c(c12)CCCC3)Cc1ccccc1 | -6.36 z-score
CCOC(=O)N1CCC(CN(Cc2ccc(Cl)cc2)Cc2ccc([N+](=O)[O-])s2)C1 (stereo not shown) | 1.95 z-score

Study 3 — effect on: enzyme activity; mode: inhibitor; concentration: 0.5 µM; reference: control
Compound: Nc1[nH]nc2nnc(-c3c(-c4ccccc4)nn4ccccc34)cc12
target | remaining activity
MYLK (Homo sapiens, UniProt Q15746) | 98.3%
PIM2 (Homo sapiens, UniProt Q9P1W9) | 91.7%
GSK3A (Homo sapiens, UniProt P49840) | 81.2%
FLT3 (Homo sapiens, UniProt P36888) | 63.5%
EPHB2 (Homo sapiens, UniProt P29323) | 93.1%
FGFR4 (Homo sapiens, UniProt P22455) | 104%
CSF1R (Homo sapiens, UniProt P07333) | 96.8%
Aurora kinase C (AURKC, Homo sapiens, UniProt Q9UQB9) | 96.4%
GRK2 (Homo sapiens, UniProt P25098) | 95%
PRKCE (Homo sapiens, UniProt Q02156) | 72.7%
RPS6KA1 (Homo sapiens, UniProt Q15418) | 95.1%
NUAK1 (Homo sapiens, UniProt O60285) | 92.5%
SRPK3 (Homo sapiens, UniProt Q9UPE1) | 88.9%
PAK2 (Homo sapiens, UniProt Q13177) | 100%
CSK (Homo sapiens, UniProt P41240) | 98%
PRKCG (Homo sapiens, UniProt P05129) | 103%
RPS6KB1 (Homo sapiens, UniProt P23443) | 97.7%
SGK1 (Homo sapiens, UniProt O00141) | 99.9%
EPHA7 (Homo sapiens, UniProt Q15375) | 99.5%
GRK6 (Homo sapiens, UniProt P43250) | 99.3%

Other studies, line by line
Compound | host | dose | notes | quantity | result
CC(C)n1cnc(-c2ccc(F)cc2)c1-c1ncc(C(=O)Nc2ccc(N3CCN(C)CC3)cc2)[nH]1 | human, idiopathic pulmonary fibrosis | 60 mg once daily | trial, treatment-emergent | patients with gastro-oesophageal reflux | 0%
